Measurements gathered from unrelated publications.
A part holds a random share of what one study measured. Several values in a cell are separate wells, animals, samples, runs or records.
Chain of UniProt P00519 (whole entry, looked up): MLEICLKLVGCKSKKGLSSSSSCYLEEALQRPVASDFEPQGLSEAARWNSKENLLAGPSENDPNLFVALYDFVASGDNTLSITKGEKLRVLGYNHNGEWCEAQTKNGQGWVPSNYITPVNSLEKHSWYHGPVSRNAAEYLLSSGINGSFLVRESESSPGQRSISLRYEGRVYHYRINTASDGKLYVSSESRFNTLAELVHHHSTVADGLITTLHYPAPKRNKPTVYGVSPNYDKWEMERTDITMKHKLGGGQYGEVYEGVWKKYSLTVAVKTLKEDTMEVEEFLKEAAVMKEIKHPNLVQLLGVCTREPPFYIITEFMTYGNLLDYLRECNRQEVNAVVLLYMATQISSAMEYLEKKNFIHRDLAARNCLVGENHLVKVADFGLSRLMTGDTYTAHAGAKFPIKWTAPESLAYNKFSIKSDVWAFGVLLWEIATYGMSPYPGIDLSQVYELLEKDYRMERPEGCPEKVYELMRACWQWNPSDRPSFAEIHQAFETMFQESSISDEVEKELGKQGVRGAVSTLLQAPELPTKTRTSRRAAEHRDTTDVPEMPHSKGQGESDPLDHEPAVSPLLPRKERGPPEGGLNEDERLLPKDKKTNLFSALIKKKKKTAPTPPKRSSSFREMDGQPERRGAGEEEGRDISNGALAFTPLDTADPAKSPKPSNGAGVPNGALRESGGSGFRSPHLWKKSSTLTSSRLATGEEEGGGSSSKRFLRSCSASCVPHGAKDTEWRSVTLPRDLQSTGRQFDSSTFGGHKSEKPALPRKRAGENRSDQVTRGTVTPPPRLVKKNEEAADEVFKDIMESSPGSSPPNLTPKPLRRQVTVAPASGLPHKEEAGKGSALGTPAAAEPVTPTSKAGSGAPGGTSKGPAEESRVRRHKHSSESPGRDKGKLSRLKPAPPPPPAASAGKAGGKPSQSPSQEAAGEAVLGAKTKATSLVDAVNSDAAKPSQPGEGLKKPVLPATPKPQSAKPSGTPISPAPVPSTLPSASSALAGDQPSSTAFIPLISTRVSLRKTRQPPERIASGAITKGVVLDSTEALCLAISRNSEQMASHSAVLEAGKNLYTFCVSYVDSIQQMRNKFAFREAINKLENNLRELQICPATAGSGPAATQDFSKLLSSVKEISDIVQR
Chain of UniProt P54760 (whole entry, looked up): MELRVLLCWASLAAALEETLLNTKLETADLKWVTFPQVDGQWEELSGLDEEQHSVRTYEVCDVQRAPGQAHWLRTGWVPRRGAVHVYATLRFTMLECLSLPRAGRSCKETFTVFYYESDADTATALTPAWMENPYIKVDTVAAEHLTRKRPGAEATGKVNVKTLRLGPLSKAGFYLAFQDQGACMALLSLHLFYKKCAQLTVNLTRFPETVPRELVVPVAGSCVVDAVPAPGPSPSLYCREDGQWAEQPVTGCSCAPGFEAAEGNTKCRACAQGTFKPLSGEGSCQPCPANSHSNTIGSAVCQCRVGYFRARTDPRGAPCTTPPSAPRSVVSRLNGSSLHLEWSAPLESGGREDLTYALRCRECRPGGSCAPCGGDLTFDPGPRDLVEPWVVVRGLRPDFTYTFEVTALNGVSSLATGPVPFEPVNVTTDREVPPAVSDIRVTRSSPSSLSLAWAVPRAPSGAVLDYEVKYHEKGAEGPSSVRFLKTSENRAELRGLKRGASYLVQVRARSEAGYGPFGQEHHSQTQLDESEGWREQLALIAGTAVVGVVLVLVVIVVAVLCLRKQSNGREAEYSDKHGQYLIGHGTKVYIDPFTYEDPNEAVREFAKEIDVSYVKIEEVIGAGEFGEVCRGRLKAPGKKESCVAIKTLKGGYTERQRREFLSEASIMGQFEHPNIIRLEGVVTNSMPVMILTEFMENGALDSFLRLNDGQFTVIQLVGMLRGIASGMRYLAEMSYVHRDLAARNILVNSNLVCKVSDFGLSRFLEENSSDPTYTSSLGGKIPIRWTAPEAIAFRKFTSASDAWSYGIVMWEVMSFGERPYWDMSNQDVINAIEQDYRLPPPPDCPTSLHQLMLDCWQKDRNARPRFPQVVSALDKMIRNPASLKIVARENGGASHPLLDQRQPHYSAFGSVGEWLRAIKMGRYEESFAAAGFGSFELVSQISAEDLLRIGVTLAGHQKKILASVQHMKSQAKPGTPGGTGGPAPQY
Chain of UniProt Q9UK32 (whole entry, looked up): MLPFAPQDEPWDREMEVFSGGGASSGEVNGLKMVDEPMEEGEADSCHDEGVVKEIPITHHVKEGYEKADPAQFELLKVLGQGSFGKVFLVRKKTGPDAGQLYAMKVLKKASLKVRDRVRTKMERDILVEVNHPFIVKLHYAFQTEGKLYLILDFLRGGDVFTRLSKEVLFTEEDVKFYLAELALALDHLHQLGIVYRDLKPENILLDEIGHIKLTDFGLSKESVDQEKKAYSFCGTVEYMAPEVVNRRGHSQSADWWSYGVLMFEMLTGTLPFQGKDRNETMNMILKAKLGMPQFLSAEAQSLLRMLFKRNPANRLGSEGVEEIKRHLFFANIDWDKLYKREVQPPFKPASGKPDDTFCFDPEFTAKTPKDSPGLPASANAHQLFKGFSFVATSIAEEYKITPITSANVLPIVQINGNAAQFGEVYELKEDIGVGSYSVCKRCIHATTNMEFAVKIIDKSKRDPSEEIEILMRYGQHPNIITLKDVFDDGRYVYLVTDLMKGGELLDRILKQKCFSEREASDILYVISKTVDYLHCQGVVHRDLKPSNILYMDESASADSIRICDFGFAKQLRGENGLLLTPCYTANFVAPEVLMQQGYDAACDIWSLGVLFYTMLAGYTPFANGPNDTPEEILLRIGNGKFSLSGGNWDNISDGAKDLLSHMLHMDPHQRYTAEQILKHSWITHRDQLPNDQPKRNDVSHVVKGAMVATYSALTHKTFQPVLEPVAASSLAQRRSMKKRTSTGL
Chain of UniProt Q16816 (whole entry, looked up): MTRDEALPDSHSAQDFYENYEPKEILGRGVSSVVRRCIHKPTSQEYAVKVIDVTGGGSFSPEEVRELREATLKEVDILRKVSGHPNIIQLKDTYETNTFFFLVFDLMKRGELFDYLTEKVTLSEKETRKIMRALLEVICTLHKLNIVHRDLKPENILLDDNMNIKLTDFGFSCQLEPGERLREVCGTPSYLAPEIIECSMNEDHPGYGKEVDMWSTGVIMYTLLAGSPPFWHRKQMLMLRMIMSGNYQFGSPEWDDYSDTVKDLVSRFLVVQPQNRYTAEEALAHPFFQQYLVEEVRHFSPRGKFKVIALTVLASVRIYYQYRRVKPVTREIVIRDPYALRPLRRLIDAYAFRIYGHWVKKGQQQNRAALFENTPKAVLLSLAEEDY
Chain of UniProt Q13554 (whole entry, looked up): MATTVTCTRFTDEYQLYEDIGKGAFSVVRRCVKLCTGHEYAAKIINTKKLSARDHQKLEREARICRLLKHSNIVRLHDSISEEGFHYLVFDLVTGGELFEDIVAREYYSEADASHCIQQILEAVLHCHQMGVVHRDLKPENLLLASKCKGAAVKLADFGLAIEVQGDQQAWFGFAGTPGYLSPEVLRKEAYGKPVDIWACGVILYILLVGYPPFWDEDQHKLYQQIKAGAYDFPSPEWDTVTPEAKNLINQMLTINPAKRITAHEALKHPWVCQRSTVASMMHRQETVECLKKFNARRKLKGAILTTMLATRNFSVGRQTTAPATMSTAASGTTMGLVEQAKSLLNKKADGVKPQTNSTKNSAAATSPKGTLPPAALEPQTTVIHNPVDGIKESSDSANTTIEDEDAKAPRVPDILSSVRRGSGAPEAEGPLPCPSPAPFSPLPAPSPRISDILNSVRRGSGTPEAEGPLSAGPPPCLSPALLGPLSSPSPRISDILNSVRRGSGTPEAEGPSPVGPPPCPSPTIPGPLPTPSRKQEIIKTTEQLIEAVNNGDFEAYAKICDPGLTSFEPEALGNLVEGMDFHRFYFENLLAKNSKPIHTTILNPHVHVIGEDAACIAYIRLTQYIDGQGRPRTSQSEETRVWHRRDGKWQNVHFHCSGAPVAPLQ
Chain of UniProt P61075 (whole entry, looked up): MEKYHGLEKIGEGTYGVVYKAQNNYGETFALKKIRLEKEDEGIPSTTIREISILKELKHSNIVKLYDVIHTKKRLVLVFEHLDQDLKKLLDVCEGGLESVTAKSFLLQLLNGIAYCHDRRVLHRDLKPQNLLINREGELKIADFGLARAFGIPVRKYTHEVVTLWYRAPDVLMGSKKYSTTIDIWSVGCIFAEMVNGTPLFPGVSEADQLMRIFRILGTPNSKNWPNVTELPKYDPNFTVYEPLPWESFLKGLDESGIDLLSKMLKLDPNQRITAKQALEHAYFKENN

Study 1
SMILES: CC[C@H](C)c1nc2cc(Nc3ccnc4ccc(S(=O)(=O)C(C)C)cc34)ccc2s1.Cl
Cell line: HT-29
Effect on: necroptosis protection
Technique: CCK-8
With: TNF-α SMAC mimetic zVAD
Quantity: viability
conditions = 1.25 µM; result = 15.6% and 26.3% and 41.3% and 37.9% and 17.2%
conditions = 0.078 µM; result = 16.2% and 19% and 19.3% and 15.7%
conditions = 5 µM; result = 47.8% and 61.7% and 96% and 66.2% and 95.2%

Study 2
Cell line: mouse MPNST tumor cells
Technique: high-content immunofluorescence imaging
Refers to: nuclear SOX9
Tested at: 10 µM
Time: 12 h
Notes: mean of 2 replicates
Baseline: DMSO control
Direction: higher = more nuclear SOX9
Quantity: nuclear SOX9 intensity
SMILES = COC(=O)CN1CN(c2ccccc2)C2(CCN(Cc3ccc4ccccc4c3)CC2)C1=O; result = 134 % of DMSO
SMILES = CC(C)C[C@H]1C(=O)N2CCC[C@H]2[C@]2(O)O[C@](NC(=O)[C@@H]3C=C4c5cccc6[nH]c(Br)c(c56)C[C@H]4N(C)C3)(C(C)C)C(=O)N12; result = 119 % of DMSO and 121 % of DMSO
SMILES = c1ccc2c(c1)Nc1ccccc1S2; result = 117 % of DMSO
SMILES = OC(c1ccccc1)(c1ccccc1)C1CCNCC1; result = 119 % of DMSO

Study 3
SMILES: N/C(=N\[N+](=O)[O-])N/N=C\c1ccc(-c2cccc([N+](=O)[O-])c2)o1
Effect on: enzyme activity
Mode: inhibitor
Tested at: 0.5 µM
Baseline: control
Quantity: remaining activity
target = HIPK4 (Homo sapiens, UniProt Q8NE63); result = 102%
target = MAPKAPK3 (Homo sapiens, UniProt Q16644); result = 95.4%
target = PHKG1 (Homo sapiens, UniProt Q16816); result = 101%
target = ABL1 (Homo sapiens, UniProt P00519); result = 101%
target = EPHB4 (Homo sapiens, UniProt P54760); result = 91.6%
target = DYRK3 (Homo sapiens, UniProt O43781); result = 102%
target = RPS6KA6 (Homo sapiens, UniProt Q9UK32); result = 96.9%
target = CAMK2B (Homo sapiens, UniProt Q13554); result = 100%

Other studies, line by line
Effect on: cell-free assay
Technique: competition with immobilised ligand
CDPK1: Calcium-dependent protein kinase 1 (CDPK1, Plasmodium falciparum, UniProt P62344)
Chain of UniProt P62344 (whole entry, looked up): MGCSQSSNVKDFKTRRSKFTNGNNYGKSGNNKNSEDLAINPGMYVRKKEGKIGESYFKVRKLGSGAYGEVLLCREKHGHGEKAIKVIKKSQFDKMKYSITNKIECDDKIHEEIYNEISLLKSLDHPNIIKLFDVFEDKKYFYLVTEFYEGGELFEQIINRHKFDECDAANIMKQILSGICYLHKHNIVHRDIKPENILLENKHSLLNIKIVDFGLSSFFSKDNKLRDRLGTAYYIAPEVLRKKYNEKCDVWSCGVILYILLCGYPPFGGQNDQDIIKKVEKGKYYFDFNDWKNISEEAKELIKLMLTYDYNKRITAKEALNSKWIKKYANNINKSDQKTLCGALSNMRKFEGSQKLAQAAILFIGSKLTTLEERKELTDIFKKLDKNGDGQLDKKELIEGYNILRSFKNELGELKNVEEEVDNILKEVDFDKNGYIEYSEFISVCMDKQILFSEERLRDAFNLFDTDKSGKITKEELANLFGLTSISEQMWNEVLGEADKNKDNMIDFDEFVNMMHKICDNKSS
SMILES = COCCOc1nc(-c2ccc(Cl)nc2)nc2c1CN(C(=O)c1ncn3ccccc13)CC2; target = CDPK1; conditions = 0.1 µM; remaining binding = 100%
SMILES = CCCOc1ccc([C@H]2[C@H](C(=O)O)[C@@H](c3ccc4c(c3)OCO4)CN2CC(=O)Nc2c(CC)cccc2CC)cc1; target = CRK2 (Plasmodium falciparum, UniProt P61075); conditions = 1 µM; remaining binding = 87%
SMILES = Cc1c[nH]c2nccc(Oc3c(F)cc(Nc4cc(Cl)nc(N)n4)cc3F)c12; target = CDPK1; conditions = 0.1 µM; remaining binding = 91%
